Measurements pooled from the literature.
± gives the spread as reported.
dnaA: dnaA 77-399 (Aquifex aeolicus, UniProt O66659)
Chain of UniProt O66659 (whole entry, looked up): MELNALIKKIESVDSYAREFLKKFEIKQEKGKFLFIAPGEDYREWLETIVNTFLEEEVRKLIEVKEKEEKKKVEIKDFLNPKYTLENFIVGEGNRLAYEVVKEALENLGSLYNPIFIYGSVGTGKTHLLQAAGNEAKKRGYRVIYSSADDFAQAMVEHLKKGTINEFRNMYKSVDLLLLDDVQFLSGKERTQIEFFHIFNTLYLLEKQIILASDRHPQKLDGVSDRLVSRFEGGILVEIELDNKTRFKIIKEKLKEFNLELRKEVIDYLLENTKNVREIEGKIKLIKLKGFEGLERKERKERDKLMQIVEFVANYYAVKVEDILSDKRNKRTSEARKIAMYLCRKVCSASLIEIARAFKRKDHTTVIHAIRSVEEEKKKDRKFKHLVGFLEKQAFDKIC
RNA polymerase holoenzyme sigma70: RNA polymerase holoenzyme sigma70 (Escherichia coli)
C5a: C5a (Homo sapiens, UniProt P01031)
Chain of UniProt P01031 (whole entry, looked up): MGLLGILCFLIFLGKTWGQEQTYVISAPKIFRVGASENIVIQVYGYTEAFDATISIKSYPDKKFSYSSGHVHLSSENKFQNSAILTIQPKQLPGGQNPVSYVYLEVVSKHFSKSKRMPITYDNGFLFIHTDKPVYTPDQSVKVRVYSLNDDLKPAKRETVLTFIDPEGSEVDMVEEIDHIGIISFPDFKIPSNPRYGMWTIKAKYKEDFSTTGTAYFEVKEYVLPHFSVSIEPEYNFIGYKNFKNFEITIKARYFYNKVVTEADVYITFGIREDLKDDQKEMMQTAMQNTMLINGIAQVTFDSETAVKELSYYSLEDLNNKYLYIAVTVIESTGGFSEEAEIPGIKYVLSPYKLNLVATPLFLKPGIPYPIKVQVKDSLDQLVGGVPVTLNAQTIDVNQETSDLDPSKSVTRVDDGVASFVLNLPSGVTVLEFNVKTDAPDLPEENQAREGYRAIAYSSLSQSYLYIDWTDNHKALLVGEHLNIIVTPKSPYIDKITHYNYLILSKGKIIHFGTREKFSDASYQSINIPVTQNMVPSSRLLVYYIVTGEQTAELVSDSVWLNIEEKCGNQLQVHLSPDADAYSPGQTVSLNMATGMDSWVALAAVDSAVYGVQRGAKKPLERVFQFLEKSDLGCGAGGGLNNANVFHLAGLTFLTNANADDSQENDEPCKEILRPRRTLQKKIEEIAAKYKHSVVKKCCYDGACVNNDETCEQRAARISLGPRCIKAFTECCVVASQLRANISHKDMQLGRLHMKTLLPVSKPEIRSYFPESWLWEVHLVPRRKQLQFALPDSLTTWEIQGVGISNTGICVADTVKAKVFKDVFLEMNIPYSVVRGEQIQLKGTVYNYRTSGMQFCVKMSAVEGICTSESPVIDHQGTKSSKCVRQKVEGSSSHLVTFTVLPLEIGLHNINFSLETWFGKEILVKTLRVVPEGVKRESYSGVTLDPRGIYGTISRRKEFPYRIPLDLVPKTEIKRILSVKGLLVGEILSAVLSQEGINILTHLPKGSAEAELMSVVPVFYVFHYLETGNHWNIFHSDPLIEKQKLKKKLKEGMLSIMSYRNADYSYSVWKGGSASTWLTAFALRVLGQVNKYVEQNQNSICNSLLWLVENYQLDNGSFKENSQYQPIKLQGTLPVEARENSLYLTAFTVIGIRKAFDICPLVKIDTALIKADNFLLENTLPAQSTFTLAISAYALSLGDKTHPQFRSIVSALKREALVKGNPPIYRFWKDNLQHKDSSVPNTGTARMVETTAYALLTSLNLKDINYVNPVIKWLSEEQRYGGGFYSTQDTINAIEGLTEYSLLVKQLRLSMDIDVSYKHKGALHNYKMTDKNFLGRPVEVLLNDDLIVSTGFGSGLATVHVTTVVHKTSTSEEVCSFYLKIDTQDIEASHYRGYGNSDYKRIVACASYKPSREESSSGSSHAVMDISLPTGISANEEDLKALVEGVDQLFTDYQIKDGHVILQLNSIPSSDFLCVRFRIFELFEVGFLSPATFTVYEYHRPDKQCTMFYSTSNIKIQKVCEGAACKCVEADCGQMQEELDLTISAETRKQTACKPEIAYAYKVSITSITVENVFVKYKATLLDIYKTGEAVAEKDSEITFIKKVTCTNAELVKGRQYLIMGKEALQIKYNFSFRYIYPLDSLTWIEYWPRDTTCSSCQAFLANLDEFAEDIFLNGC
T1: MBNL1 1-382 (Homo sapiens); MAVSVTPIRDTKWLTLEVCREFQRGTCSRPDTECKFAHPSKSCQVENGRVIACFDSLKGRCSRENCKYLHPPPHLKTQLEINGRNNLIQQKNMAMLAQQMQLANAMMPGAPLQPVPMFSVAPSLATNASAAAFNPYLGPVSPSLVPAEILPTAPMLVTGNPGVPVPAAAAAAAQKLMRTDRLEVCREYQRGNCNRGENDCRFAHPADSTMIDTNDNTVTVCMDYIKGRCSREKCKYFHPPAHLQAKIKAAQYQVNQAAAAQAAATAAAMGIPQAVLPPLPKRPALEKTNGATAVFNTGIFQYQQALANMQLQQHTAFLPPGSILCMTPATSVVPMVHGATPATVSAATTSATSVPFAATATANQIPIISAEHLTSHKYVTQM
Chain of UniProt O60656 (whole entry, looked up): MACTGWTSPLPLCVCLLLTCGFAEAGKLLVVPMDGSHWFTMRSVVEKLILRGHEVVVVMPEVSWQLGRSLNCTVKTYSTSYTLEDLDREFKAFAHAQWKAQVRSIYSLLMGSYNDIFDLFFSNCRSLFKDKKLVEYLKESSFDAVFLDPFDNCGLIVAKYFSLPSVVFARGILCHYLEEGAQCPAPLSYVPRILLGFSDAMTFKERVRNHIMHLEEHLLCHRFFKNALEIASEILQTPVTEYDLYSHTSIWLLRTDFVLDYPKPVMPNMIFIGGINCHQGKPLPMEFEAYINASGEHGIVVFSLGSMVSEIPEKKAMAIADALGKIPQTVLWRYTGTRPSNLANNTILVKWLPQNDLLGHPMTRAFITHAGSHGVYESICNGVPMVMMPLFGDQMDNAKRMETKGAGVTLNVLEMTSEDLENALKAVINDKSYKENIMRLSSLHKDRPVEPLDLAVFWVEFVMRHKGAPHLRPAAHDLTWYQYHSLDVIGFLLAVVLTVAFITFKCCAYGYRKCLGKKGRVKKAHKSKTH
Chain of UniProt Q8H1D4 (whole entry, looked up): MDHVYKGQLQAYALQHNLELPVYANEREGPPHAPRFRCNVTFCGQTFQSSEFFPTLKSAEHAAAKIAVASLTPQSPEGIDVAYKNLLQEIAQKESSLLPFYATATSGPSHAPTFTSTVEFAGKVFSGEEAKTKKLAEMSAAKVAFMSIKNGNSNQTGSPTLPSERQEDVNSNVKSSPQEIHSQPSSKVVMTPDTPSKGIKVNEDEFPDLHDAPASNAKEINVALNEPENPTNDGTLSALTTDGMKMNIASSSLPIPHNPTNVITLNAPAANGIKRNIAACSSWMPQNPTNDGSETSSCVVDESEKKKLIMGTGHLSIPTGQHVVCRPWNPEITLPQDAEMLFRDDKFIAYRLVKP
Chain of UniProt P09874 (whole entry, looked up): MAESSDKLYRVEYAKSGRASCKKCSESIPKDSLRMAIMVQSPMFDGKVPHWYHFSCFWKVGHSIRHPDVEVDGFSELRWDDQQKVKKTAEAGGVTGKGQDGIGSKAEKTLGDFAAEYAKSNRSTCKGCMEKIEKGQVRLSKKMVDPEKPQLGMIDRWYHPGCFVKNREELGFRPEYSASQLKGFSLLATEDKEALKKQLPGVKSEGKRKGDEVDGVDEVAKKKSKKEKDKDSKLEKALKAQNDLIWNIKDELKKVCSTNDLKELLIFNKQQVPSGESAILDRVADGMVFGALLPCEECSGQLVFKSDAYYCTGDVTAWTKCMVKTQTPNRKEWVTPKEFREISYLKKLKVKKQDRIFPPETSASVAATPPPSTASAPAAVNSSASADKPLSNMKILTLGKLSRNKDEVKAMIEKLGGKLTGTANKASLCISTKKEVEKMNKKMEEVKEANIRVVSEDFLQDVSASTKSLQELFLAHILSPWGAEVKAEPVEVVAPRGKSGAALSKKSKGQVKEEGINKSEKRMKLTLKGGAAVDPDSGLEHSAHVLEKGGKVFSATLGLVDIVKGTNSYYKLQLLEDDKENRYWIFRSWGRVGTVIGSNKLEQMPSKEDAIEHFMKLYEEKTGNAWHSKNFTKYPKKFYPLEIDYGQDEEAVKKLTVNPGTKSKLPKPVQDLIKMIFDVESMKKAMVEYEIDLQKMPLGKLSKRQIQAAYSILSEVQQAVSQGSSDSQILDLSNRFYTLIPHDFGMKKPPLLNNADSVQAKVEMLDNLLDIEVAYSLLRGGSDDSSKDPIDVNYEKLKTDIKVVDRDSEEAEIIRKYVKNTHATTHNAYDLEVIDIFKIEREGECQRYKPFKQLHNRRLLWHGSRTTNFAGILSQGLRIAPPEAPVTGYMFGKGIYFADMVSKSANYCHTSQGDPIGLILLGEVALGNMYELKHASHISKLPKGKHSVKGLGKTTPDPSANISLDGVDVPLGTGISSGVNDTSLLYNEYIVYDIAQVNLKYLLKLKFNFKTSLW
Chain of UniProt Q96FI4 (whole entry, looked up): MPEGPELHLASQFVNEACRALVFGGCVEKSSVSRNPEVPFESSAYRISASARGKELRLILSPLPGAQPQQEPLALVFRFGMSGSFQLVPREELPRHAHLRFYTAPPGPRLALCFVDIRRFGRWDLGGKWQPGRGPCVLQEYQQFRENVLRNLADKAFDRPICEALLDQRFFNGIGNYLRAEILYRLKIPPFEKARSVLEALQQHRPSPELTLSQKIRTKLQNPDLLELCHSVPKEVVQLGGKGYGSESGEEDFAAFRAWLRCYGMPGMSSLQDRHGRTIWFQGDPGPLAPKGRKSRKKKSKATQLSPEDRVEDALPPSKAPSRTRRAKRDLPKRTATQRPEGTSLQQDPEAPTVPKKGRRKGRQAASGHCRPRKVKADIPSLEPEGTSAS
Chain of UniProt Q9FGD6 (whole entry, looked up): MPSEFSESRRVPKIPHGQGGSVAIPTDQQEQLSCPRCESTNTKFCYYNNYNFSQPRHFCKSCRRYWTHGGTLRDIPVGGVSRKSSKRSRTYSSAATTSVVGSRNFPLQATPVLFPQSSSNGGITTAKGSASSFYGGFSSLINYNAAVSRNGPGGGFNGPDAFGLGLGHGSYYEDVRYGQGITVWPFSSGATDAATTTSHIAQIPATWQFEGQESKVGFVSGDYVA

Substance	target or system	test	test system	setting	endpoint	value
TGCTGCCATCTTATATTTTCTATACAAAAGTATAGAAAATATAAGATGGCAGCAGCATCTTGATGCGAGGACGTCAAAAGACGTCCTCGCATCAAGATGC (dsDNA; double hairpin dumbbell, nick, AAAA loops)	SPO11/TOP6BL (Mus musculus)	EMSA	–	without Mg2+	Kd	68.4 ± 3.06 nM
GCGGACGGACAGAGAGUGCAACCUGCCGUGCCGC (ssRNA; 2'-F pyrimidines, 5' thiol-C6)	ITGA5/ITGB1 on cells (Mus musculus)	flow cytometry	MB49-Luc	MgCl2 1 mM, CaCl2 0.5 mM, not purified	Kd	264 ± 30.3 nM
CAACTGAGACCATGTACCCAGTTCGAATCGGATGTATATATCTGACACGTGCCTGGAGACTAGGGAGTAATCCCCTTGGCGGTTAAAACGCGGGGGACAGCGCGTACGTGCGTTTAAGCGGTGCTAGAGCTGTCTACGACCAATTGAGCGGCCTCGGCACCGGGATTCTCGATAACTCAGCAATAGTGGGTCTCA / ACCATGAGACCCACTATTGCTGAGTTATCGAGAATCCCGGTGCCGAGGCCGCTCAATTGGTCGTAGACAGCTCTAGCACCGCTTAAACGCACGTACGCG / CTGTCCCCCGCGTTTTAACCGCCAAGGGGATTACTCCCTAGTCTCCAGGCACGTGTCAGATATATACATCCGATTCGAACTGGGTACATGGTCTCA (nucleosome DNA; nicked bottom strand, 5'-OH)	PARP1 full length assumed (Homo sapiens, UniProt P09874)	optical tweezers	–	single molecule, not purified, added: force 4 pN	Kd	2.2 ± 0.3 nM
TTTTTTTTTTTTTTTTTTTTTTTTTTTTTTTTTTTTTTTTTTTTTTTTTTTTTTCGGAGCGACGGCAGCGGT / ACCGCTGCCGTCGCTCCG (DNA duplex; 18 bp, 5' overhang, C6-amino-dT)	dnaA	EMSA	–	added: ADP-BeF3	Kd	1600 nM
CUGCUGCUGCUGCUGCUGCUGCUGCUGCUGCUGCUGCUGCUGCUGCUGCUGCUGCUGCUGCUGCUGCUGCUGCUGCUGCUGCUGCUGCUGCUGCUGCUGCUGCUGCUGCUGCUGCUGCUGCUGCUGCUGCUGCUGCUGCUGCUGCUGCUGCUGCUGCUGCUG (RNA hairpin; hairpin)	T1, MBNL1 1-382 (Homo sapiens)	filter binding	–	–	Kd	5.3 ± 0.6 nM
TGGCGACGGCAGCGAGGCTTTTTTTTTTTTTTTTTTTTTTTTTTTTTTTTTTTTTTTTTTTTTTTTTTTTTT / GCCTCGCTGCCGTCGCCA (DNA duplex; 18 bp, 3' overhang, C6-amino-dT)	dnaA	EMSA	–	added: ADP-BeF3	Kd	2000 nM
UGAGGUAGUAGGUUGUAUAGUU / CUAUACAACCUACUACCUCANN (dsRNA; 3' overhang 2 nt)	DBR4 1-75 (Arabidopsis thaliana, UniProt Q8H1D4)	ITC	–	averaged single site	Kd	8700 ± 2800 nM
GAGGCCCTTTCGTCTTCAAGAATTCTATTTGACAAAAATGGGCTCGTGTTGTACAATAAATGTGTCTAAGCTTGGGTCCCACCTGAC (dsDNA (Bacillus subtilis); blunt, A replaced by 7-deazaadenine)	RNA polymerase holoenzyme sigma70	EMSA	double-stranded DNA, one strand shown	–	Kd	35.5 ± 2.9 nM
GCCUGAUGUGGUGGUGAAGGGUUGUUGGGUGUCGACGCACAGGC (L-RNA; terminal stem, six DNA residues)	C5a	SPR	–	–	Kd	0.36 nM
AAATAATCATAAAGTATTAAAGTAATATATAC (dsDNA (Arabidopsis thaliana))	DOF5.8 zinc finger (Arabidopsis thaliana, UniProt Q9FGD6)	EMSA	double-stranded DNA, one strand shown	–	Kd	5000 nM
GCGAUGUGGUGGUGAAGGGUUGUUGGGUGUCGACGCACGC (L-RNA; terminal stem, six DNA residues)	C5a	SPR	–	–	Kd	0.4 nM
CGCTAGGATCNGGCCCCGCC / GGCGGGGCCGGATCCTAGCG (dsDNA; blunt, tetrahydrofuran abasic site opposite G)	NEIL1 full length assumed (Homo sapiens, UniProt Q96FI4)	EMSA	–	apparent, cooperative fit	Kd	18 nM
GGACAGGACCACACCCAGCGCGGTCGGCGGGTGGGCGGGGGGAGAACGAGGTAGGGGTCAGGCTCCTGTGTGTCGCTTTGT (ssDNA)	LDLR fragment (Homo sapiens)	flow cytometry	Huh-7	in cells, tRNA competitor, not purified	Kd	295 nM
GAGGCCCTTTCGTCTTCAAGAATTCTATTTGACAAAAATGGGCTCGTGTTGTACAATAAATGTGTCTAAGCTTGGGTCCCACCTGAC (dsDNA (Bacillus subtilis); blunt, A replaced by 7-phenyl-7-deazaadenine)	RNA polymerase holoenzyme sigma70	EMSA	double-stranded DNA, one strand shown	–	Kd	35.8 ± 5 nM
ACCGACCGTGCTGGACTCATCTCGCTTTTTTCACGGTCCACACTACTATGAGCGAGCCTGGCG (ssDNA; stem-loop)	CD274 fragment (Homo sapiens)	flow cytometry	MDA-MB-231 PD-L1 OE	1 h, 4 °C, not purified	Kd	15.4 nM
GCUGAUGUGGUGGUGAAGGGUUGUUGGGUGUCGACGCACAGC (L-RNA; terminal stem, six DNA residues)	C5a	SPR	–	–	Kd	0.3 nM
GACGTCCTCGCATCAAGATGCTGCTGCCATCTTATATTTTCTATACAATAAGTATAGAAAATATAAGATGGCAGCAGCATCTTGATGCGAGGACGTCTA (dsDNA; hairpin, AATAA loop, 3' overhang 2-nt)	SPO11/TOP6BL (Mus musculus)	EMSA	–	without Mg2+	Kd	43.5 ± 2.15 nM
UGT1A9 (Homo sapiens, UniProt O60656)	O=c1cc(-c2ccccc2)oc2cc(O)c(O)cc12	steady-state kinetics	–	pH 7.4, 37 °C	Vmax/Km	910 µL/min/mg
GCCUGAUGUGGUGGUGAAGGGUUGUUGGGUGUCGACGCACAGGC (L-RNA; terminal stem, one DNA residue)	C5a	SPR	–	–	Kd	0.71 nM
GAGUUGAGUUGAGUUGAGUUGAGUUGAGUUGAGUUGAGUUGAGUUGAGUUGAGUU (ssRNA; single strand)	mtrB full length assumed T30L (Bacillus subtilis, UniProt P19466)	filter binding	–	added: L-tryptophan 1 mM	Kd	158 ± 18 nM

A few entries again:
Substance	target or system	test	test system	setting	endpoint	value
TGGCGACGGCAGCGAGGCTTTTTTTTTTTTTTTTTTTTTTTTTTTTTTTTTTTTTTTTTTTTTTTTTTTTTT / GCCTCGCTGCCGTCGCCA (DNA duplex; 18 bp, 3' overhang, C6-amino-dT)	dnaA	EMSA	–	added: ADP-BeF3	Kd	2000 nM
AAATAATCATAAAGTATTAAAGTAATATATAC (dsDNA (Arabidopsis thaliana))	DOF5.8 zinc finger (Arabidopsis thaliana, UniProt Q9FGD6)	EMSA	double-stranded DNA, one strand shown	–	Kd	5000 nM
TTTTTTTTTTTTTTTTTTTTTTTTTTTTTTTTTTTTTTTTTTTTTTTTTTTTTTCGGAGCGACGGCAGCGGT / ACCGCTGCCGTCGCTCCG (DNA duplex; 18 bp, 5' overhang, C6-amino-dT)	dnaA	EMSA	–	added: ADP-BeF3	Kd	1600 nM
